Published values pooled from the literature.
Numbered parts are unrelated; each lists some results of a single study.

Block 1 — method: RNA Bind-n-Seq; form: RNA; medium: in vitro; tested at: not given; relative to: input RNA pool; reading: higher = stronger binding
Target: RING finger protein unkempt homolog, zinc fingers 1-6, GST-SBP tag (UNK, Homo sapiens, UniProt Q9C0B0, residues 30-357)
Chain of UniProt Q9C0B0 (30-357, looked up): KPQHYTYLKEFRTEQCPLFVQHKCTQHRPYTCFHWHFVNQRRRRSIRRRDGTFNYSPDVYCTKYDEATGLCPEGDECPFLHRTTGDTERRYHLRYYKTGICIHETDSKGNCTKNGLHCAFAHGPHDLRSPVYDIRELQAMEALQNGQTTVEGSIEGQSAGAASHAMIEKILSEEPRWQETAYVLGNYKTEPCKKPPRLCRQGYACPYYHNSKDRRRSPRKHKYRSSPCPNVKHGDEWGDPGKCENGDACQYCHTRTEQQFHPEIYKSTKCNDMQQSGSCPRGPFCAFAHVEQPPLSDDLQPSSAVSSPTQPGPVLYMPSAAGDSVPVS
Setting: RNA with constant flanks, human and mouse sites, ends assumed
`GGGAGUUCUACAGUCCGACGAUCAUGGCAGCUCAUGUCAGUAGGGACAGAGUUAUAAAGAACUGUAUAGCCCAGACCUCAGCAGUAGUAAAAAGUCUCCGAGAAGAGAGAGAAAAGAACCUGGAUGACUUAACGUUAUUAAAGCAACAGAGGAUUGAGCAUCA` has a bound/input enrichment of 0.685 ratio.
For `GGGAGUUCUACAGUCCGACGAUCCUCCCGCCCGAACCGUAGCCGCGACCCGCAGUCUCGCCCGCUCAGCGGCCUGAGGCGCGUCGCUUUCUCGUGUCCCCUCGUCGGGCCUAAUCGCCGCUCCUGCCCGGCCCGCCGGCCCACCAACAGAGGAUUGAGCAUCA`, the bound/input enrichment was 0.347 ratio.
`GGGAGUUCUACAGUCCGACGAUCGAGCAGUUUGAACGCUACCUACAUGAUGAGAGUGGACUGAACAGGCGUCACAUCAUUGAUAACAGGGUACAUUGUUGCUUCUACUUCAUUUCACCUUUUGGACAUGGACUGAAGCCCUUACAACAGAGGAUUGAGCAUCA` gave a bound/input enrichment of 0.114 ratio.
`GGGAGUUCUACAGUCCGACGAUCCUUACCUGGCACCUCGUCCAAGAAGAAUGCCUUCCAAGUAUGCCAAGUUGUCAGGAAUUUACAUCAGCAAGUAUUUACCAUGCCAGUGAGUUUACACAGUGGAGGAGAGUCAUAGUGCUUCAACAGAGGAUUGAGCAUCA` gave a bound/input enrichment of 0.216 ratio.
The bound/input enrichment of `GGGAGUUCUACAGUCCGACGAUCGAACUAUCCGGGACCCAGAAAAGCCCAAUACUUUAGAAGAACUGGAAGUGGUCACAGAGAGUUGUGUGGAAGUUCAAGAAAUAAAUGAAGAUGACUAUUUGGUUAUUAUCAAGUUCACACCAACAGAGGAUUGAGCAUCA` is reported as 0.384 ratio.
The bound/input enrichment of `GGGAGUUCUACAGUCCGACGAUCAAUGAACACUUUAAUAUUUUCCUUACUGCUAAGGACCUGAACGCCUACAAGAAGCAAGGGAUAGCAUUGCUGACCAGAAUGGGCGAGUCAGUCAAGCACGUCACUGGCGGCUACAAGCUGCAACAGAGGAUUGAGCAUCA` is reported as 0.185 ratio.
`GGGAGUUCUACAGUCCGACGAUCCAGUCCAUACAGACUUGGGGGUGGUUUGGGGUAUUGCUGUGUGUUCUUUAUGCUUAUGUUCUUAGAGUAUGGUCAGAUGGGACAAGACCCCCUCCUGUCUUCUACAUGACAUGGAGAAAGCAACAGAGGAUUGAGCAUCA` gave a bound/input enrichment of 0.491 ratio.
With `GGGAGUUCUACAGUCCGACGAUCGAGCCCGAGAGGUGGCCAGACCGUCAUCAUCGUUCUAAUACAGCUACUUCCUCAGCCACCGGUAUGAGCCACGGGAAGAGAACCGACAUGCUCCCGGAGAUCGCCGCCGCCGUGGGUUUCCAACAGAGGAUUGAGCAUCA` the bound/input enrichment was 0.133 ratio.

Block 2 — method: RNA Bind-n-Seq; form: RNA; medium: in vitro; tested at: 365 nM; relative to: no-protein control; reading: higher = stronger binding
Target: RNA binding protein fox-1 homolog 2, RRM domain, GST-SBP tag (RBFOX2, Homo sapiens, UniProt O43251-10, residues 100-194)
Setting: natural RNA segment, single round, ends assumed
For `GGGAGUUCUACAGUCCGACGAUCAGCCUGUCUGCCAAAUCCAGUGGAAACAAGUGCAUAGAUGUGAAUUGGUUUUUAGGGGCCCCACUUCCCAAUUCAUUAGGUAUGACUGUGGAAAUACAGACAAGGAUCUUUGGAAUUCUCGGGUGCCAA`, “RBNS enrichment (R)” read 0.647.
Under “RBNS enrichment (R)”, `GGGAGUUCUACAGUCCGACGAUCGAUCAUUUAGGACAUUAUCACAAGUUGCUAUGGAAAUAACUGAAGACUUCCUCAGGAGAAGGAAAGAAAAUGAGGAACAUAAUGAUAGAGUCGGGGAACUCCCACUAGCUUGGAAUUCUCGGGUGCCAA` is recorded as 0.979.
`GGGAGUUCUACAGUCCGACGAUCUGGUAUUCUGAGAGUUGCUCUGUAUUCUGGGUUCUGAAGAUUAUUUGAAAAAUAACUCCUACUACAUUGAAAUGCAGACUUAAAAAUUUAAACAUUGGAUUAGGCAGUCAUGGAAUUCUCGGGUGCCAA`: “RBNS enrichment (R)” 0.492.
For `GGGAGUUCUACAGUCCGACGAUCAAAAACCAGUUUCUCACGGAGGUUGAACCUAUCUGUGGCUGGACAGUCUUGGAUACUGUCAAGCAAACACCAGAGGCUUGGCCAAGUAUAGUUACAAUUACCUAGUUGGGUGGAAUUCUCGGGUGCCAA`, “RBNS enrichment (R)” read 0.363.
For `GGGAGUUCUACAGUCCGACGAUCCACCAGAGAGCUCAGGGCAGCUUUAUCUUCCAGGUUUAUCUAAAACUAUCUGUGUUGGGCUUCCCUGACACGGGAGAGGGGCAAGGAUAGACGAUUGACAUGGCACUGAUUGGAAUUCUCGGGUGCCAA`, “RBNS enrichment (R)” read 0.482.
`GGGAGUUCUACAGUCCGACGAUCUCCUCCAUCCCCCACUUCACCCCAUCCCAUACCAGUUCCAUCCAGGGUCUGCUUAACUGCCAAGAGCAGGUCCUGGAGUUCCCUUCACCUGCAGAGUCCUUUUCAUGACCUGGAAUUCUCGGGUGCCAA` — result for “RBNS enrichment (R)”: 1.68.
`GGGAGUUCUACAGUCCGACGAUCUAGGUCAAGGACAAGUGCCUUCUAAGGCAUGGAUAAGGGCUUUCUUCUUAUGAAAGUCUAGACUGUCUUACUGUGAAGAUGGCCAGGGAGGAUAGCAAGCAAUGGCAUUCUGGAAUUCUCGGGUGCCAA` — result for “RBNS enrichment (R)”: 0.498.
`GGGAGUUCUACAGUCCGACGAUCAGCCUCCUGCCUACCCCACUCUCUGCCGCUCGGAGGCCCCAAAGGAAAAAGCACAAGAAGCGUGAGAGAUACCGCCAUUCCUGGAGACAAAGCCCACCUGCUCAUUCUCGUGGAAUUCUCGGGUGCCAA`: “RBNS enrichment (R)” 0.408.

Block 3 — method: protein binding microarray; form: double-stranded DNA, one strand shown; medium: in vitro; tested at: not given; relative to: not given; reading: higher = stronger binding
Target: Histone acetyltransferase KAT6A, both winged helices, GST fusion (KAT6A, Homo sapiens, UniProt Q92794, residues 1-181)
Setting: 8-mer, flanks averaged, mean of 2 arrays, mostly near background
Residues (chain): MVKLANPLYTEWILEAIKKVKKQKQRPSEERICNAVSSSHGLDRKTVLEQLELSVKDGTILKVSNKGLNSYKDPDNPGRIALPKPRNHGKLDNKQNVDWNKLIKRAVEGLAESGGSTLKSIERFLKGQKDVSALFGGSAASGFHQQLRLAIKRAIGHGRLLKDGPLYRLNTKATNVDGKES
For `AGGGAAGC`, the E-score was -0.0209.
For `CAGGATAA`, the E-score was -0.21.
For `TTGGACAA`, the E-score was -0.044.
The E-score of `CGGCAGAG` is reported as 0.135.
With `AGTGCTGA` the E-score was -0.142.
`TGCAGCAA` has an E-score of -0.115.
For `ATCTGGGA`, the E-score was -0.155.
`AGTCGTGG` has an E-score of -0.206.
`AAACCGGT` has an E-score of 0.218.
`CCCGCGGG` has an E-score of 0.398.
The E-score of `CATGACGC` is reported as 0.271.
`CGGCTAAC` has an E-score of 0.289.
The E-score of `AGAGCTGA` is reported as -0.246.
For `AAATGTTA`, the E-score was 0.00202.
`CGATAAAA` gave an E-score of 0.0736.
`ATAGAAGC` has an E-score of -0.115.
With `AGCCGGGG` the E-score was 0.0611.
The E-score of `ACACTGCC` is reported as 0.048.
The E-score of `CGAGGTGC` is reported as 0.0205.
For `GGTTGAAC`, the E-score was 0.0573.
`AAGTAATC` has an E-score of -0.133.
`CCTGCCAC` gave an E-score of -0.145.
`GAACCCCC` gave an E-score of -0.0455.
The E-score of `AGTCCTCG` is reported as -0.247.
The E-score of `GGCCATCA` is reported as -0.0449.

Block 4 — method: protein-binding microarray; form: double-stranded DNA, one strand shown; medium: in vitro; tested at: not given; reading: higher = stronger binding
Target: Runt-related transcription factor 1 (RUNX1, Homo sapiens, UniProt Q01196, residues 1-453, full length assumed)
Chain of UniProt Q01196 (whole entry, looked up): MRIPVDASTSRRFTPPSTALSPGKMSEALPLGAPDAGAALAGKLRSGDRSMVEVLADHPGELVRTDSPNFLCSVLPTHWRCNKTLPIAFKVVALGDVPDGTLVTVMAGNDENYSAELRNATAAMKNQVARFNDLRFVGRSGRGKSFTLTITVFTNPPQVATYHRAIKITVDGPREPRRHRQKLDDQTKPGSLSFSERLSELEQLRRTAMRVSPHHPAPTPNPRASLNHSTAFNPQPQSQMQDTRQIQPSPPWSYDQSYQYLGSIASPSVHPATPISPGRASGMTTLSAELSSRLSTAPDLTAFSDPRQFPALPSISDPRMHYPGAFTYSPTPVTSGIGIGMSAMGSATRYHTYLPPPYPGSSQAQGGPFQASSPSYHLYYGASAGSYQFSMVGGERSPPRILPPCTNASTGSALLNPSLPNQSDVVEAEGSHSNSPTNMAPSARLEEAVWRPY
Setting: k-mer, scored over probes, only values ≥0.25
The E-score of `GGGAAGA` is reported as 0.281.
`ACTAACC` has an E-score of 0.287.
The E-score of `CCCGCAA` is reported as 0.331.
`GACCACA` gave an E-score of 0.425.
With `ACCACAT` the E-score was 0.439.
The E-score of `TCCCGCA` is reported as 0.277.
`ACTGCGG` gave an E-score of 0.291.
The E-score of `ATACCGC` is reported as 0.299.
`ACCACGA` gave an E-score of 0.354.
With `AACCGCA` the E-score was 0.497.
With `CGGTTTC` the E-score was 0.267.
With `GTGGTAA` the E-score was 0.403.
The E-score of `TGGTTAA` is reported as 0.282.
The E-score of `CAACCAC` is reported as 0.379.
`CCACAAA` gave an E-score of 0.422.
`CACCACA` gave an E-score of 0.357.
`TCCCACA` has an E-score of 0.309.
